Experimental data pooled from the literature.
A part holds a random share of what one study measured. Substitutions count along the parent as printed.

Block 1
Target: Ras GTPase-activating protein-binding protein 1, full length (G3BP1, Homo sapiens, UniProt Q13283)
UniProt Q13283, sequence (whole entry, looked up): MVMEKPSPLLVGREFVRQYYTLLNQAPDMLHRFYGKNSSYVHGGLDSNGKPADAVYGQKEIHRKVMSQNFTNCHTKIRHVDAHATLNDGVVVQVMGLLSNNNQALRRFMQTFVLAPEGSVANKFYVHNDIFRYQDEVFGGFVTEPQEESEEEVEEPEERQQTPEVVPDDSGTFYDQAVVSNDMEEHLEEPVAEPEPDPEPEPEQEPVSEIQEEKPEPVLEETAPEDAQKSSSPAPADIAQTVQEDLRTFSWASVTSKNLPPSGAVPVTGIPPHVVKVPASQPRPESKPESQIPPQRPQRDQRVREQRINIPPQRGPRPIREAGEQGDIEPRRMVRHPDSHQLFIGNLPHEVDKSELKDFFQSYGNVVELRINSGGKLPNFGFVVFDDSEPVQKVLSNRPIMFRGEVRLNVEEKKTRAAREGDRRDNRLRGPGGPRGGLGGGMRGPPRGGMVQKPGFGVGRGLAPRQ
Technique: RNA Bind-n-Seq
Form: RNA
Medium: in vitro
Tested at: 200 nM
Notes: whole 134-nt RNA, ends assumed
With: 150 mM KCl
Relative to: input library
Direction: higher = stronger binding
Endpoint: log2 enrichment
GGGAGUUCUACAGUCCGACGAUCAAGUCCUGUGCUACACAUCGUAUGUACCGAAUCGGGGCCCGGGCCCGGGGCCCGGGGAAAGUAUUAUGUUACGCCGUUCGGAUCUGCACUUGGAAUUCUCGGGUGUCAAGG: -1.16
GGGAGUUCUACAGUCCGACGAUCUCCUGUGCUACACAUCGUAUGUACCGAAUCGGGAAAGGGAAAAAAAGGGUUUUUUUGGGAAAGUAUUAUGUUACGCCGUUCGGAUCUGCAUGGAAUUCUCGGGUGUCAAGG: -0.431
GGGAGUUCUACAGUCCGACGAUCAGUCCUGUGCUACACAUCGUAUGUACCGAAUCGGGGAAAAGGGGAAAAGGGGAAAAGGAAAGUAUUAUGUUACGCCGUUCGGAUCUGCACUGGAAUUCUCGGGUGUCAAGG: -0.172
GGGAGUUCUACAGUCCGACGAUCUCCUGUGCUACACAUCGUAUGUACCGAAUCGGGGAGGGGAAAAAGGGGAAAAAAAGGGGAAAGUAUUAUGUUACGCCGUUCGGAUCUGCAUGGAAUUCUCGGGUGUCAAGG: 0.54
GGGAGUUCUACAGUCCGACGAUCUGGCCCUGGUGGCAUGCGGGGAGGAAGAGGUAGCCUCAUGGAUCGUGGUGGUCCCGGUGGAAUGUUCAGAGGUGGCCGUGGUGGAGACAGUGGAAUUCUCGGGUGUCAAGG: 0.274
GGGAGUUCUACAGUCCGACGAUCCACAGACAACACGCACCCACACAGACACAGAGGGAAGGGGUUGGGAUGGGGACAGGGUGCACAGCAGGGCGGGGUAGAAACCCAGCCCCUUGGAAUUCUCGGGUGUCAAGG: 1.85
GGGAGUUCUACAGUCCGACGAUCUAACUUUAGAGGAGGACCUGAUGGAUAUGGCAGUGGACGUGGAUUUGGGGAUGGCUAUAAUGGGUAUGGAGGAGGACCUGGAGGUGGCAAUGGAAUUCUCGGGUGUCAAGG: 0.356
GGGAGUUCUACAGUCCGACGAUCAGUCCUGUGCUACACAUCGUAUGUACCGAAUCAAACCCAAAUUUUUUUAAACCCAAAAAAGUAUUAUGUUACGCCGUUCGGAUCUGCACUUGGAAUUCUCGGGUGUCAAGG: -0.479
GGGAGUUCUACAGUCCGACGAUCCACAGACAACACGCACCCACACAGACACAGAGGGAAGGGGUUGGGAUGGGGACAGGGUGCACAGCAGGGCGGGGUAGGACCCCAGAAACUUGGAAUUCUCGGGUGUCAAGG: 1.94

Block 2
Target: RNA binding protein fox-1 homolog 2, RRM domain, GST-SBP tag (RBFOX2, Homo sapiens, UniProt O43251-10, residues 100-194)
Technique: RNA Bind-n-Seq
Form: RNA
Medium: in vitro
Tested at: 365 nM
Notes: natural RNA segment, single round, ends assumed
Relative to: no-protein control
Direction: higher = stronger binding
Endpoint: RBNS enrichment (R)
Residues (chain): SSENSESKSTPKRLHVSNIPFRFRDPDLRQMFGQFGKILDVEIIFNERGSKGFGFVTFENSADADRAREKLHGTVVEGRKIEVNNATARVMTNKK
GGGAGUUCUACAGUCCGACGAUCAGUGCUACAAGCCCUCAGGAGCUCAAGAUAGCAGAGUCCUUCUUUCAAAGCCCAGCUUAGUGAGGACUUGGGUCAACUUCAGUAAGCUUCCUCUGAAGCAACUGAAGGCCUGGAAUUCUCGGGUGCCAA: 0.222
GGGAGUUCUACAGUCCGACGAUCUGAGUGGGGGGAAGGGCAGCUGUUAUCUUGCCAAGCCUGGUUGUAAUUUGUAACCAUUUUCUAUUUGUUCGAACUCUGUAAAUAAUAUGUUUAAAGAUGUAAUAUUUUGUUGGAAUUCUCGGGUGCCAA: 0.627
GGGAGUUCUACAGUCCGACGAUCACUCAGGACUGCUCCUGGAAGACAUCUCAAGGUGGGAAGCCUGGCUUUCCUGGGCUUUGCUUUCUUAACUCCCACCAUCCAGGCCUCCUCUAGAGUCCACUGAGUCACAAUGGAAUUCUCGGGUGCCAA: 0.173
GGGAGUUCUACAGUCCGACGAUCGCUACUCUCGACGUAACAUAUAUACAUAUGUGUGUGUGUGUGUGUGUGUGUGUGUGCUAUCCAAAUAUAUUUGUAUAUAUUUGUAUAGCAUUUUUACACUUUAGGAGUAAUGGAAUUCUCGGGUGCCAA: 0.357
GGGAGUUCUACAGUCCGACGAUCCAUUUCCUCCAUUCAUAGAGGGCAAUAAGCAAGACCUGUAGACCCAAAGCACAGGUUUAUUCUAAAGAAAACUUUUACGACAAUACUUUCUGUAUUGUCUAGGUUAAGCCUGGAAUUCUCGGGUGCCAA: 0.194
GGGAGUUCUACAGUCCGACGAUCGGAAAGGGCUCUCCUCUCUGAUUGGUCCCUAGGCCACGGGCCGGCCCCCAGACACCAUUCACCGACCCACUGCAGGCUGUCCUCCAACCAUGGGGUGGCCACUCCACCCGUGGAAUUCUCGGGUGCCAA: 0.606
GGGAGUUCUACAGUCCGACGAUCGAAGCUGGGACUACAGGCGCCCGCCACCACGCCCGGCUAAUUUUUUUGUAUUUUUAGUAGAGACGGGGUUUCACUGUGGUCUCGAUCUCCUGACCUCGUGAUCCGCCCGCUGGAAUUCUCGGGUGCCAA: 0.314
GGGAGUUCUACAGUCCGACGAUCCCCAUUUUCUGAGGAUAAAUUCAAGCCCCCUGCAGAAAUUUGCAUAAGUAACAAGGAGCCAAAUGUUAAUCACUAAGACAUGGGGAAAAUGUCUGCAGGGCAUGUCAGAGUGGAAUUCUCGGGUGCCAA: 0.875
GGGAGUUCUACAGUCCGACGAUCUCAAGCUUUAAUUUGGAUCCACACCUACAGCUGACCCAAAUGUCUCCUCUGUAGUCAUCUUAUUUGGAUCAGGGAGAAGCAUGAACAAAAAUAUGUUCCAGAACCAUGUGUGGAAUUCUCGGGUGCCAA: 0.748
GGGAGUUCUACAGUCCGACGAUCCCCGUGUGCUGUUAAUAGUGUGAAAUUGUCAUGUUAAAAAAAAAAACAGGAACCAAAUGUGACCUUGUGCAUAUAUUGGUAGCUGAAAAUCUUCAAGGCUACUGAUGGGUUGGAAUUCUCGGGUGCCAA: 0.557
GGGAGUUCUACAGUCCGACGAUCGCCUGAACCGGUGUGUAUUUGGGGAUCUGGAUGUGUAUGGCCACGGUGUGGCAGCUUUUGGAUUUUUUUCCUCCGGGGAGCAUUGACUGUGUGGACAUUGUUUGAGGAGCUGGAAUUCUCGGGUGCCAA: 0.657
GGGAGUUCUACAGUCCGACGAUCCUCCCCUCCCCAAGUAUUUUAGUCCAAGUUUCCUUUAGUUUGAGAACAUAGAUUGUAUCACCCAUAUAUUCUUGAAUACACUUGUUUGGUUUGGUAUUACUUUGACUAUGUGGAAUUCUCGGGUGCCAA: 2.43

Block 3
Target: Sal-like protein 4, full length isoform A (SALL4, Homo sapiens, UniProt Q9UJQ4, residues 1-1053)
UniProt Q9UJQ4, sequence (whole entry, looked up): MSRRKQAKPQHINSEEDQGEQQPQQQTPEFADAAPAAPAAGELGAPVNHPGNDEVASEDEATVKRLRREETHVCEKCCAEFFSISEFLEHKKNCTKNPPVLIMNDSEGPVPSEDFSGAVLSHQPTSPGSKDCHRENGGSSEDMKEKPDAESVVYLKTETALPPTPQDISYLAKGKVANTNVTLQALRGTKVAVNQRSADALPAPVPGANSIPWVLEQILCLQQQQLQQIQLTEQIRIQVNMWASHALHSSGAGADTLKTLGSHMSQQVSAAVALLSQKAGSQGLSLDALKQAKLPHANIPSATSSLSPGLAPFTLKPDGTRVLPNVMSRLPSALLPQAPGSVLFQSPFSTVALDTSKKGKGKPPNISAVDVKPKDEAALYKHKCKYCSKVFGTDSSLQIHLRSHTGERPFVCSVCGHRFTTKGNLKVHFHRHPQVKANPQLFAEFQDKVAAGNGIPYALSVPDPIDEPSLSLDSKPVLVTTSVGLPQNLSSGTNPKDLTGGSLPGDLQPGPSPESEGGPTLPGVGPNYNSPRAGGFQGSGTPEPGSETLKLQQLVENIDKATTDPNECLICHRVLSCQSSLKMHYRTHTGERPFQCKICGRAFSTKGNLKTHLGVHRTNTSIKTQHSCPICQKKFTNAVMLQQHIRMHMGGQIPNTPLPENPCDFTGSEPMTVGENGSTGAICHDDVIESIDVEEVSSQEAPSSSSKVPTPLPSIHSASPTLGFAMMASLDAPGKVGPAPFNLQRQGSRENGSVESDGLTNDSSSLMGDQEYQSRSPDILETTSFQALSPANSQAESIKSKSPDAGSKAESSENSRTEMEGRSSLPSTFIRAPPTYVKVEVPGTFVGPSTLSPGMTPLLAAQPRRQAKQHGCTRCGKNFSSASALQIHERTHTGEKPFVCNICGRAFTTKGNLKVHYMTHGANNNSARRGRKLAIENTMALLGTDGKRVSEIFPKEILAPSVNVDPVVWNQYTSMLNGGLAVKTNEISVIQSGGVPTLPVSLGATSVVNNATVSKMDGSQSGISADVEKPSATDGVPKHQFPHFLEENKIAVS
Technique: universal PBM
Form: double-stranded DNA, one strand shown
Medium: in vitro
Tested at: 600 nM
Notes: 8-mer, flanks averaged, mean of replicates
Direction: higher = stronger binding
Endpoint: E-score
AACAGAGG: -0.0933
CAATTCTA: 0.204
AGGCTGAC: -0.171
GTGTCCCA: -0.251
CTGAGATC: -0.204
TGTAACAA: 0.192
GCTCTATA: 0.121
CTATCCAG: -0.03
TAGCTGAA: 0.107
CGAACACG: -0.0206
TACCCTAA: 0.0462
AGCATTCG: -0.0868
TAGTCTAA: 0.0641
ACTTCAGA: 0.0754
AGTACCAC: -0.0568
ATCCCAAC: -0.07
ATTATGTA: 0.347
GAGCGCTC: -0.247
CGTCCCTA: -0.0767
AAGCGGCT: -0.257

Block 4
Target: CCND1, cyclin fold, Cln2 fusion (human)
Technique: yeast growth competition, sequencing
Medium: yeast
Notes: weak parent motif
Relative to: not given
Direction: higher = stronger binding
Endpoint: normalised enrichment score
Starting sequence: MASTL docking peptide (human); PMIAKNLMCELDE
L11E: 0.191
D12F: 0.269
L7I: 0.202
L11R: -0.128
A4E: -0.0205
I3W: -0.137
C9P: 0.234
E10P: 0.00309
I3V: 0.213
M8H: 0.218
L11D: -0.135
M8W: 0.446
M8V: 0.376
C9R: 0.261
I3A: 0.562
I3T: 0.225
N6S: 0.106
E10M: 0.0556
K5F: 0.625
A4W: 0.604
E10V: -0.11
L7N: 0.0849
N6E: 0.00955
E10D: 0.147
L7E: 0.579

Block 5
Target: Interferon regulatory factor 5, full length, phosphomimetic (IRF5, Homo sapiens, UniProt Q13568-2, residues 1-514, S451D/S453D/S456D/S462D)
Technique: protein-binding microarray
Form: double-stranded DNA, one strand shown
Medium: in vitro
Tested at: 940 nM top
Notes: 60-bp whole probe
With: salmon DNA 0.4 mg/ml
Relative to: random background probes
Direction: higher = stronger binding
Endpoint: fitted relative affinity
Shared flanks, not repeated: GCCTAGCAC … GTCTTGATTCGCTTGACGCTGCTG
CTGTTTTTGCTTTCTTTATGGTGCTAG: 2.98 z-score
TTACTTCCCAATAATCTTTTCGTGCTA: 1.79 z-score
GTCGGACTGCTTCTCCTGACGTGCTAG: 0.266 z-score
TTAGATCTCGGTCTCGATTAGTGCTAG: 3.19 z-score
GACGGTATCCGTATCGGGACGTGCTAG: 0.938 z-score
TCACATTTTTTTTCATCACTGTGCTAG: 1.86 z-score
GACGGTTTCGGGTATCGGAACGTGCTA: 9.52 z-score
CTAGGTTCCGGTTTCGGTTAGTGCTAG: 8.98 z-score
TGCATTTTTTTTTTCTACTTGTGCTAG: 1.52 z-score
GACGATCTCAGTCTCGCGACGTGCTAG: 0.382 z-score
GATATTATATCTGTGTTATTGTGCTAG: -0.0239 z-score
GACGATTCCATTTTCGAGACGTGCTAG: 1.19 z-score
GACGGTTTCGGGTTTCGGGACGTGCTA: 8.86 z-score
CTCTGGGGAGATCAGCGCATGTGCTAG: -0.505 z-score
TCAAATTTCTTCCTCCCACTGTGCTAG: 1.09 z-score
GGCGAACTGAGTCTCGAGACGTGCTAG: 0.743 z-score
TTACATTTCGGGACTGGATTAGTGCTA: 0.418 z-score
GACGGACTGGGTTTCGGGCCGTGCTAG: 2.47 z-score
TTAGGTATCGGGACCGGGTTAGTGCTA: 4.48 z-score
GACGGTTTCGGGTATGGGGACGTGCTA: 8.87 z-score
TTGGATTTCAGTCTCGATTAGTGCTAG: 4.24 z-score

Single results of other studies
PhoQ, residues 284 288 289 292 302 303 TLSLKA
fold induction (PhoP, residues 12 14 15 18 19 TPLRH (Escherichia coli, UniProt P23836); Sort-seq, measured: YFP reporter; E. coli; PhoQ-PhoP variant library, with: 10 µM Mg2+; relative to: high Mg2+ state, higher = stronger signaling): 16.5
